Experimental data collected from several papers.
Compare with care: the assays were run in different laboratories.
Technique: steady-state kinetics
B1: HCT R356D (Coleus scutellarioides, UniProt E8ZAP2); chain MKIHVRDSTLVRPSAATPAVSLWNSNVDLVVPNFHTPSVYFYRPSGADNFFDTAVMKAALGRALVSFYPMAGRLKRDEDGRVEIDCNAEGVLFVEAESDGTVDDYGDFAPSLELRRLIPAVDYSQGISAYPLLVLQVTFFKCGGVSLGVGMQHHAADGFSGLHFINTWSDMARGLDITLPPFIDRTLLSARDPPQPQFKHVEYQPPPAMKTYEPAETVVSIFKLTKDQLTTLKAKSKEDGNTTTYSSYEMLSGHVWRCTCLARGLPEEQETKLYIATDGRSRLQPQLPPGYFGNVIFTATPLAVAGDLGSKPVWYAASKIHDALARMDNDYLRSALDFLELQPDLKALVRGAHTFDCPNLGITSWVRLPIHDADFGWGRPIFMGPGGIAYEGLSFVLPSPTNDGSLSVAISLQAEHMKLFEKLLYQI
B2: LodA (Marinomonas mediterranea, UniProt F2JXJ3); chain MALSVHPSIGVARLGNANTDNFVLNPMEIGGLPYEHDVDLKPTTTVVNFKDEAGCIRRQGQVFKVFGASNEELTLDSPNVKNIEWTVHLANKKAAWYEFRELNGNLLYGRDNSYSARGVPWRNASKTASSERQSLIIDLGPRSVSGVMATVEISINNIPETYLHPSYPSGELLQGSKHFESLGTLRTDSQGRLIVLGGYGFAGGNTDLSGYGGGDDWYDDISDGSVTCVVTYSDDSSETSTAWMVVGSPDFAPEIVNISTLSDTCFDVGVRNFDLVPDMYDSATGHYKSDYVANFDRDILPIIQRISQYQWVSNVQSMSGFFSFQFDYRDGSAANKANRMKYYNYFRQLDNKVIGDYDQPQQVLMSSEVEGDILPLMPMNSGSNSVSSSNFYDLTDNVVEKFLALDATQLFLLGQWAEGEFTAGPADDYPVSDMDTASIGNCVGLPMCPGIEMTWSLQNPVIYKDAYQIKHYQDKAYFDVNGLTPERDECEEETGCEPGDLTKRMACPWQADFFNCTIQTVNFSEPSVNKASQTETVTSRTHYEWGNLPAGVSVPDQSSVSATKNVDEKVPLPPAYYSYWWPPQSPWDVLTGELDTEGQLHSHLPAGQQINYARGINSYSQMVEHWSALAFIRDRNQNNDGFPFFTETERNHELFDFKEVLVGQVTGNSEDNETSLPVFFINANKESLEGKGTKKGKLMASYFEERAFSKVRSSNIRPRSGTRMRG
B3: SULT1B1 E275K/K266E (Homo sapiens, UniProt O43704); chain 1 MLSPKDILRKDLKLVHGYPMTCAFASNWEKIEQFHSRPDDIVIATYPKSGTTWVSEIIDMILNDGDIEKCKRGFITEKVPMLEMTLPGLRTSGIEQLEKNPSPRIVKTHLPTDLLPKSFWENNCKMIYLARNAKDVSVSYYHFDLMNNLQPFPGTWEEYLEKFLTGKVAYGSWFTHVKNWWKKKEEHPILFLYYEDMKENPKEEIKKIIRFLEKNLNDEILDRIIHHTSFEVMKDNPLVNYTHLPTTVMDHSKSPFMRKGTAGDWENYFTVAQNEKFDAIYETEMSKTALQFRTEI; chain 2 MLSPKDILRKDLKLVHGYPMTCAFASNWEKIEQFHSRPDDIVIATYPKSGTTWVSEIIDMILNDGDIEKCKRGFITEKVPMLEMTLPGLRTSGIEQLEKNPSPRIVKTHLPTDLLPKSFWENNCKMIYLARNAKDVSVSYYHFDLMNNLQPFPGTWEEYLEKFLTGKVAYGSWFTHVKNWWKKKEEHPILFLYYEDMKENPKEEIKKIIRFLEKNLNDEILDRIIHHTSFEVMKDNPLVNYTHLPTTVMDHSKSPFMRKGTAGDWKNYFTVAQNKKFDAIYETEMSKTALQFRTEI
B4: CHST10 (Homo sapiens, UniProt O43529); chain TFKDPDVYSAKQEFLFLTTMPEVRKLPEEKHIPEELKPTGKELPDSQLVQPLVYMERLELIRNVCRDDALKNLSHTPVSKFVLDRIFVCDKHKILFCQTPKVGNTQWKKVLIVLNGAFSSIEEIPENVVHDHEKNGLPRLSSFSDAEIQKRLKTYFKFFIVRDPFERLISAFKDKFVHNPRFEPWYRHEIAPGIIRKYRRNRTETRGIQFEDFVRYLGDPNHRWLDLQFGDHIIHWVTYVELCAPCEIMYSVIGHHETLEDDAPYILKEAGIDHLVSYPTIPPGITVYNRTKVEHYFLGISKRDIRRLYARFEGDFKLFGYQKPDFLLN
B5: Paox H64A (Mus musculus, UniProt Q8C0L6); chain MAFPGPRVLVVGSGIAGLGAAQKLCSHRAAPHLRVLEATASAGGRIRSERCFGGVVELGAHWIAGPSQDNPVFQLAAEFGLLGEKELSEENQLVDTGGHVALPSMIWSSSGTSVSLELMTEMARLFYGLIERTREFLNESETPMASVGEFLKKEISQQVASWTEDDEDTRKRKLAILNTFFNIECCVSGTHSMDLVALAPFGEYTVLPGLDCILAGGYQGLTDRILASLPKDTVAFDKPVKTIHWNGSFQEAAFPGETFPVLVECEDGARLPAHHVIVTVPLGFLKEHQDTFFEPPLPAKKAEAIKKLGFGTNNKIFLEFEEPFWEPDCQFIQVVWEDTSPLQDTALSLQDTWFKKLIGFLVQPSFESSHVLCGFIAGLESEFMETLSDEEVLLSLTQVLRRVTGNPQLPAAKSVRRSQWHSAPYTRGSYSYVAVGSTGDDLDLMAQPLPEDGTGTQLQVLFAGEATHRTFYSTTHGALLSGWREADRLVSLWDSQVEQSRPRL
Sequence of UniProt P15424 (whole entry, looked up): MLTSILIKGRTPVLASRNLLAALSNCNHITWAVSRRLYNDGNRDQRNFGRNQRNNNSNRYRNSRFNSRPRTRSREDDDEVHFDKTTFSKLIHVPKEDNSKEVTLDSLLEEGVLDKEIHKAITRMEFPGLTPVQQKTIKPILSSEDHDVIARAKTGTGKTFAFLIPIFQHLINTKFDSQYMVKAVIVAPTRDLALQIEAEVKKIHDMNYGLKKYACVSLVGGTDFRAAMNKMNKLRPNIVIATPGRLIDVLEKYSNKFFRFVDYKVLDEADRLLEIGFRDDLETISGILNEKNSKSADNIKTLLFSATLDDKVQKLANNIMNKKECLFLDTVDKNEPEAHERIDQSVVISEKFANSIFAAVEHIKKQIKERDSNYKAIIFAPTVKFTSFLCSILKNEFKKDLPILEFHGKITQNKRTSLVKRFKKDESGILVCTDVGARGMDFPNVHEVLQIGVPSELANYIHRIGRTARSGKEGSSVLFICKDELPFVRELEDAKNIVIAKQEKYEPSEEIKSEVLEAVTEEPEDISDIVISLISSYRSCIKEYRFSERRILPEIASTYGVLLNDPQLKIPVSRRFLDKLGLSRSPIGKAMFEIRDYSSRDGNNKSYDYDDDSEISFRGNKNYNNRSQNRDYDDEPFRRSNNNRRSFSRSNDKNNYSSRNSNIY
Sequence of UniProt Q58605 (whole entry, looked up): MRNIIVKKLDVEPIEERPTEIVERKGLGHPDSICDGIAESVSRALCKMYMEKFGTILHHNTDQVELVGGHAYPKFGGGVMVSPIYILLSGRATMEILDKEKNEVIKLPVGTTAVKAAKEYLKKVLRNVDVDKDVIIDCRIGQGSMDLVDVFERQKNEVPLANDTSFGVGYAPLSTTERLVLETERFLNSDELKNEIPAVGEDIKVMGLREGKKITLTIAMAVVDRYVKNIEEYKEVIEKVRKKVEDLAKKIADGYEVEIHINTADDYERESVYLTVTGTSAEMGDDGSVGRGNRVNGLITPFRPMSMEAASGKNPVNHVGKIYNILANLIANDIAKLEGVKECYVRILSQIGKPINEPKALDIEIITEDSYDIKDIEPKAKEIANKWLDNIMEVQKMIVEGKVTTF
Sequence of UniProt J9VYP5 (whole entry, looked up): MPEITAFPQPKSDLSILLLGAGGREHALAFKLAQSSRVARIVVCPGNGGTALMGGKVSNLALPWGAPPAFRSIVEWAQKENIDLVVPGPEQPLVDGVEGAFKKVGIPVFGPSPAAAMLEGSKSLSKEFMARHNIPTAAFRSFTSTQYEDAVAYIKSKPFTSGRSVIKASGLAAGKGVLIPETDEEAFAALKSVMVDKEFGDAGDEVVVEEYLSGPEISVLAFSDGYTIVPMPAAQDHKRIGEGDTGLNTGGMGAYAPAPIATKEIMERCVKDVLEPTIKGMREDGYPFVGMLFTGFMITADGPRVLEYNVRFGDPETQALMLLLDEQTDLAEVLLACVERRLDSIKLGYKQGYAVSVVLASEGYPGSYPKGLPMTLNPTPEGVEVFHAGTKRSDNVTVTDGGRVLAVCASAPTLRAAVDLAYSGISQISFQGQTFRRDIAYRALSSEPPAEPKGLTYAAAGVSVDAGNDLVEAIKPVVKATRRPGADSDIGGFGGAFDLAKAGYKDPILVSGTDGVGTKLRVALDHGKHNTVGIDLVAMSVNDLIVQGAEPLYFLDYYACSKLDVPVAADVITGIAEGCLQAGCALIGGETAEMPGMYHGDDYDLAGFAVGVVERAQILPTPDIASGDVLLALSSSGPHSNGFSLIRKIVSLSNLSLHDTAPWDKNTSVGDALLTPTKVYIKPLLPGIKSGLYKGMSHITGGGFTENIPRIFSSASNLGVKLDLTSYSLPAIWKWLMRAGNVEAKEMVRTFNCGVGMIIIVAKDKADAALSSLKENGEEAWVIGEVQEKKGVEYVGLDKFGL

The Km of `MSS116 (Saccharomyces cerevisiae, UniProt P15424)` is reported as 100 µM (Nc1ncnc2c1ncn2[C@@H]1O[C@H](COP(=O)(O)OP(=O)(O)OP(=O)(O)O)[C@@H](O)[C@H]1O; pH 7.5, 37 °C, together with: ATP).
`Ptb (Listeria monocytogenes, UniProt Q8Y7B7)` gave a Km of 57.9 µM (CC(C)C(=O)SCCNC(=O)CCNC(=O)[C@H](O)C(C)(C)COP(=O)(O)OP(=O)(O)OC[C@H]1O[C@@H](n2cnc3c(N)ncnc32)[C@H](O)[C@@H]1OP(=O)(O)O; pH 7.5, 25 °C, apparent).
`Mj-MAT (Methanocaldococcus jannaschii, UniProt Q58605)` has a Km of 310 µM (CSCC[C@H](N)C(=O)O; 55 °C, together with: ATP 2.5 mM, methionine 0.05-1 mM).
`GAR synthetase (Cryptococcus neoformans, UniProt J9VYP5)` gave a Km of 240 µM (N[C@@H]1O[C@H](COP(=O)(O)O)[C@@H](O)[C@H]1O; pH 8, 37 °C, apparent).
The Km of `B1 (HCT R356D)` is reported as 36000 µM (NCc1ccc(O)c(O)c1; pH 8, pseudo-first-order, together with: p-coumaroyl CoA).
`enzyme (Streptomyces filamentosus, UniProt A0ABY4UVI6)` gave a Km of 120 µM (CSc1c(O)cc(-c2ccccn2)nc1C(=O)N[C@@H](CC(C)C)C(=O)O; pH 8, 30 °C).
With `B2 (LodA)` the Km was 3.2 µM (NCCCC[C@H](N)C(=O)O; pH 7.5, 25 °C, together with: O2).
The Km of `B3 (SULT1B1 E275K/K266E)` is reported as 1.9 µM (Nc1ncnc2c1ncn2[C@@H]1O[C@H](COP(=O)(O)OS(=O)(=O)O)[C@@H](OP(=O)(O)O)[C@H]1O; pH 7.4, 37 °C, together with: 1-naphthol).
With `B4 (CHST10)` the Km was 321 µM ([H][C@@]12CCc3cc(O[C@@H]4O[C@H](C(=O)O)[C@@H](O)[C@H](O)[C@H]4O)ccc3[C@@]1([H])CC[C@]1(C)[C@@H](O)CC[C@@]21[H]; pH 7.2, 37 °C).
For `B5 (Paox H64A)`, the Km was 50 µM (CC(=O)NCCCNCCCCNCCCN; pH 10, 30 °C).
`α-amino ester hydrolase (Xanthomonas campestris, UniProt Q8P8K4)` has a Km of 2200 µM (CC1=C(C(=O)O)N2C(=O)[C@@H](NC(=O)[C@H](N)c3ccccc3)[C@H]2SC1; pH 7, 25 °C, phosphate 100 mM).
